Measurements pooled from the literature.
Compare with care: the assays were run in different laboratories. ± marks the error that the study gave.

CCCCCCCCCCCCCCCC(=O)NCCOCCOCCOCCOCCOCCOCCOCCOCCC(=O)NCCCC[C@H](NC(=O)CNC(=O)[C@@H]1CSSC[C@H](N)C(=O)N[C@@H](Cc2ccc(O)cc2)C(=O)N[C@@H]([C@@H](C)CC)C(=O)N[C@@H](CCC(N)=O)C(=O)N[C@@H](CC(N)=O)C(=O)N1)C(=O)NCC(N)=O — Cmax (male C57BL/6J mouse, plasma; subcutaneous, 1 mg/kg): 0.331 µM
COc1ccc(NC(=O)N2CCCN3CCC(c4ccc(C#Cc5ccccc5)cc4)C3C2)cc1 (stereo not drawn) — Cmax (CD-1 mouse, brain; oral, 10 mg/kg, single dose): 3040 ng/g
NS(=O)(=O)NCC(F)(F)c1ccccc1F — Cmax (mouse, brain; oral, 5 mg/kg): 7540 ng/g
O=c1[nH]c2ccccc2n1CCCCCN1CCN(c2ccc(F)cc2)CC1 — Cmax (C57BL/6 mouse, brain; subcutaneous, 5 mg/kg): 400 ± 800 ng/mL
COc1ccc(NC(=O)N2CCCCN3[C@H](CN(C)C)[C@H](c4ccc(C#Cc5ccccc5)cc4)[C@@H]3C2)cc1 — Cmax (CD-1 mouse, plasma; oral, 10 mg/kg, single dose): 406 ng/mL
Clc1ccc(C(c2c[nH]c3ccccc23)c2c[nH]c3ccccc23)cc1 — Cmax (mouse C57BL/6 male, plasma; oral, 25 mg/kg): 1120 ± 405 ng/mL
CN(CCCNC(=O)c1cccc(C(=O)O)c1)CCCNC(=O)c1cc(NC(=O)c2cc(NC(=O)c3cc(NC(=O)c4cc(NC(=O)[C@H](N)CCNC(=O)c5cc(NC(=O)c6cc(NC(=O)c7nc(NC(=O)c8nccn8C)cn7C)cn6C)cn5C)cn4C)cn3C)cn2C)cn1C — Cmax (C57BL/6 mouse, plasma; intraperitoneal, 120 nmol/animal): 14.8 µM
O=C(Cc1ccc(-c2ccc(OCCN3CCOCC3)cc2)cn1)NCc1ccc(F)cc1 — Cmax (ICR mouse; oral, 10 mg/kg): 2880 ± 1220 ng/mL
O=C(Nc1nccs1)C(c1cc(F)ccc1O)N1Cc2ccccc2C1=O (stereo not drawn) — Cmax (mouse FVB/NRj, female, plasma; oral, 20 mg/kg): 719 ± 512 ng/mL
N#CC1(c2ccc3c(N)ncnn23)OC(COP(=O)(O)O)C(O)C1O (stereo not drawn) — Cmax (LC-MS/MS; CD-1 mouse, liver; oral, 100 mg/kg of remdesivir): 61600 nmol/kg
C=CC(=O)Nc1cccc(-c2cnc3[nH]cc(C(=O)NC(C)(C)C)c3n2)c1 — Cmax (mouse NOD/SCID female, plasma; ip, 50 mg/kg): 10000 ng/mL
CCCCCCCCN(CCC(=O)Nc1ccccc1)C(=O)c1ccccn1 — Cmax (C57BL/6 mouse, Lmna +/+, both sexes, serum; intraperitoneal, 40 mg/kg): ~40 µM
Cc1ccc(NC(=O)N2CCCN3CCC(c4ccc(C#CC5(O)CCCCC5)cc4)C3C2)cc1 (stereo not drawn) — Cmax (CD-1 mouse, plasma; oral, 10 mg/kg, single dose): 94.5 ng/mL
COC(=O)C1=CNC=C(C(=O)OC)C1c1ccc(F)c(C(F)(F)F)c1 — Cmax (male mouse, brain; intraperitoneal, 25 mg/kg): 29 µM
COc1ccc2ccc3c(c2c1)C=[N+]1C2CCCCC2[N+]2=Cc4cccc(OC)c4[O][Au-]21[O]3.F[P-](F)(F)(F)(F)F (stereo not drawn) — Cmax (ICP-MS, item: gold; mouse, serum; intraperitoneal, 5 mg/kg): 2320 ng/mL
Clc1ccc2ccc3[n+](c2c1)[Ir-3]12([c]4ccccc4-3)([c]3ccccc3-c3ccc4ccc(Cl)cc4[n+]31)[n+]1ccccc1-c1cccc[n+]12.F[P-](F)(F)(F)(F)F — Cmax (ICP-MS, item: iridium; mouse, serum; intraperitoneal, 2.0 mg/kg): 27 ng/mL
N=C(N)NCCC[C@@H]1NC(=O)[C@H](Cc2c[nH]c3ccccc23)NC(=O)[C@@H](CC2CCCCC2)NC(=O)[C@@H]2CCCN2C(=O)[C@@H](NC(=O)CCc2ccccc2)CCCNC1=O — Cmax (C57BL/6J mouse, plasma; intravenous, 1 mg/kg single dose): 34600 ng/mL
COC(=O)C1OC(Oc2c(-c3ccccc3)oc3cc(O)c(O)c(O)c3c2=O)C(O)C(O)C1O (stereo not drawn) — Cmax (BALB/c mouse, plasma; oral, 10 mg/kg): 11.7 ng/mL
CCNC(=O)c1noc(-c2cc(C(C)C)c(O)cc2O)c1NC(=O)CCN1CCOCC1 — Cmax (CD1 nude mouse, A-431 xenograft, plasma; intraperitoneal, 80 mg/kg single): 2950 ng/mL
NC(=O)c1ccc(C(=O)NOCc2ccc(Sc3cccc(Cl)c3)c(C(F)(F)F)c2)cc1 — Cmax (male ICR mouse, plasma; oral, 60 mg/kg): 11000 ng/mL
CC1(C)CC[C@@]2(CO)C(=C3C=C[C@@H]4[C@@]5(C)CC[C@H](O)[C@@](C)(CO)[C@@H]5CC[C@@]4(C)[C@]3(C)C[C@@H]2O)C1 — Cmax (UHPLC-MS/MS; mouse, plasma; oral, 50 mg/kg of saikosaponin a): 66.3 ng/mL
